Measurements pooled from the literature.
Parts stem from different laboratories: compare values within a part only. “And” joins repeats or separate records; there may be more than shown. Substitutions count along the parent as printed.
Chain of UniProt P28223 (whole entry, looked up): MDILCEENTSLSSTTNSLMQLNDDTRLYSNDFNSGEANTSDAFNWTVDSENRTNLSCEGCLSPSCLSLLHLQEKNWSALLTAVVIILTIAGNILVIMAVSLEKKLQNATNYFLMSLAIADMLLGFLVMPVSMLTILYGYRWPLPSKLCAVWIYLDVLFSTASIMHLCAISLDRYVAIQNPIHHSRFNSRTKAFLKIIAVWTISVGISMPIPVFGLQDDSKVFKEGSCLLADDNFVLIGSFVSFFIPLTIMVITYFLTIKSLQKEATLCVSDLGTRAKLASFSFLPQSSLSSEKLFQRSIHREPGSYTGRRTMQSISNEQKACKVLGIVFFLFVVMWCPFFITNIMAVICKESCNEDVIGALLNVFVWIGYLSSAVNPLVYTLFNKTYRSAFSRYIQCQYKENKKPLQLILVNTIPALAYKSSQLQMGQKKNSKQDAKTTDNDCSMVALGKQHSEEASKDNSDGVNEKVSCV
Chain of UniProt P20309 (whole entry, looked up): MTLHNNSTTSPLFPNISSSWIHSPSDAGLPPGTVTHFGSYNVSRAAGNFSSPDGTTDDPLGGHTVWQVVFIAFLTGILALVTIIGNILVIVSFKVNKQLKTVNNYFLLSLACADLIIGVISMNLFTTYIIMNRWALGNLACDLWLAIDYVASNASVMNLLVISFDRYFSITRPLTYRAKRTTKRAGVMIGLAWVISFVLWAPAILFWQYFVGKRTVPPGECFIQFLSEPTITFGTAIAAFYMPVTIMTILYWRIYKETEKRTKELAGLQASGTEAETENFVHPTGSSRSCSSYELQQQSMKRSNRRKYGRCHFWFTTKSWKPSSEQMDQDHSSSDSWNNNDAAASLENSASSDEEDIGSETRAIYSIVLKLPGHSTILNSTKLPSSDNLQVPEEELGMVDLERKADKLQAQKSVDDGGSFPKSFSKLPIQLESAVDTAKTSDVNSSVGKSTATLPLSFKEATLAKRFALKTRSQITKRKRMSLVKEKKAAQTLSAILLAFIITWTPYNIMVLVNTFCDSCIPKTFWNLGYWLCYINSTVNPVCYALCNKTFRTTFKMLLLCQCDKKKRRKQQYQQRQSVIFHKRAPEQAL
Chain of UniProt P35372 (whole entry, looked up): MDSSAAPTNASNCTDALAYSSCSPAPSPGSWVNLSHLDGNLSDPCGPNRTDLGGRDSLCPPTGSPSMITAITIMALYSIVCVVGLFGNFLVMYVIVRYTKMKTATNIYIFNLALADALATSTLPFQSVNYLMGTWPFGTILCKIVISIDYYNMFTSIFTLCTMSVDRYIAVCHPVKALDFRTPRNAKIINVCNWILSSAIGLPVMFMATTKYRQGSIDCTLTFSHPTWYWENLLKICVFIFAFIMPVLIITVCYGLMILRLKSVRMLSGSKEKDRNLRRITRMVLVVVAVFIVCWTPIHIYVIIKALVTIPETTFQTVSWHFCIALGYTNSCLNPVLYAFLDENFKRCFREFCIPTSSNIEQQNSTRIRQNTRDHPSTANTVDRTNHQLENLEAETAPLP
Chain of UniProt P41145 (whole entry, looked up): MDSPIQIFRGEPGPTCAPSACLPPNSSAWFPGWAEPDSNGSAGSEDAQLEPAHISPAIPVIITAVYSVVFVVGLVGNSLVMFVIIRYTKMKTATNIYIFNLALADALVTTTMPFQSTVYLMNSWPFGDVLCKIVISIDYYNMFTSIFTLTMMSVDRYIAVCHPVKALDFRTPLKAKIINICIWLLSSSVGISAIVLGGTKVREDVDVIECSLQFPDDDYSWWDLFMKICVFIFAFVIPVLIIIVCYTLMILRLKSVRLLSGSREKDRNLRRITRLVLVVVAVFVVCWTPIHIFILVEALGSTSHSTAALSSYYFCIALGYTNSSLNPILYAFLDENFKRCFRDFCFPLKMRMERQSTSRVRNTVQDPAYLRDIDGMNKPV
Chain of UniProt P41143 (whole entry, looked up): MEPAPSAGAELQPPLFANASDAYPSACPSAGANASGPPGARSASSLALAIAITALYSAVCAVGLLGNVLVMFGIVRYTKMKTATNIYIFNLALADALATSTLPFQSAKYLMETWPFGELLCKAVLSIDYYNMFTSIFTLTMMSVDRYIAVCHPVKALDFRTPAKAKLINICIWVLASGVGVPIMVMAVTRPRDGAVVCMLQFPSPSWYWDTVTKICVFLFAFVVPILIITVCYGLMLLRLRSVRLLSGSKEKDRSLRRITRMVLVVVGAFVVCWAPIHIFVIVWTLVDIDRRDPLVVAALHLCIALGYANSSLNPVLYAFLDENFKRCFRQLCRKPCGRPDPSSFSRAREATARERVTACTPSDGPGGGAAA
Chain of UniProt P11229 (whole entry, looked up): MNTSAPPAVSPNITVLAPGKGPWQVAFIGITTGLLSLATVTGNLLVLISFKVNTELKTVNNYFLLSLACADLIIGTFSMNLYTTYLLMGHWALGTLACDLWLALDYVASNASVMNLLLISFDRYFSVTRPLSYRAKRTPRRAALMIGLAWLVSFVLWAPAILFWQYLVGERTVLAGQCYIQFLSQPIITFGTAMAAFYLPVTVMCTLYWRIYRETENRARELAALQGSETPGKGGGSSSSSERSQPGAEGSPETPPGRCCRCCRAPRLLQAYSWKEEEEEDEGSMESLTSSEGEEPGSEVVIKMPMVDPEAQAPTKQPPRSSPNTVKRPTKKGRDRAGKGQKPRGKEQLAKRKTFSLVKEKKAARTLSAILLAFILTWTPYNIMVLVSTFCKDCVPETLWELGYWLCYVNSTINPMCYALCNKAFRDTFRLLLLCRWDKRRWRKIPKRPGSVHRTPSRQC

Sample 1
Target: CCNF, cyclin fold, Cln2 fusion (human)
Method: yeast growth competition, sequencing
Medium: yeast
Setting: strong parent motif
Reference: not given
Direction: higher = stronger binding
Starting sequence: viral docking peptide; YKVKRRLVFGADD
Substitution	normalised enrichment score
K2E	8.16
V3A	8.55
K2M	8.91
R6T	8.04
D12A	9.46
A11D	8.45
K4R	8.71
K2Y	8.82

Sample 2
Structure (SMILES): O=C(NNS(=O)(=O)c1ccccc1)c1cc(-c2ccnnc2)ccc1F
Effect on: cell-free assay
Concentration: 10 µM
target	inhibition [%]
OPRK1 (Homo sapiens, UniProt P41145)	-5.1
CHRM3 (Homo sapiens, UniProt P20309)	13
OPRD1 (Homo sapiens, UniProt P41143)	7.99
HTR1A (Homo sapiens, UniProt P08908)	23.1
DRD5 (Homo sapiens, UniProt P21918)	5.79
OPRM1 (Homo sapiens, UniProt P35372)	26.1
CHRM1 (Homo sapiens, UniProt P11229)	43.3
HTR2A (Homo sapiens, UniProt P28223)	11.8

Other studies, line by line
Concentration: 10 µM
Compound	target or system	assay	setting	scale	quantity	result
Fc1ccc(C(OCCN2CCN(CCCc3ccccc3)CC2)c2ccc(F)cc2)cc1	mouse MPNST tumor cells	high-content immunofluorescence imaging, refers to: nuclear SOX9	12 h, mean of 2 replicates	reference: DMSO control, higher = more nuclear SOX9	nuclear SOX9 intensity	150 % of DMSO and 132 % of DMSO
CN1CC[C@@]23CCCC[C@@H]2[C@@H]1Cc1ccc(O)cc13.O=C(O)C(O)C(O)C(=O)O	Sarcocystis neurona	parasite growth	second screen	reference: untreated	log2 fold change	0.47
CC(=O)Nc1cc([As](=O)(O)O)ccc1O	mouse MPNST tumor cells	high-content immunofluorescence imaging, refers to: nuclear SOX9	12 h, mean of 2 replicates	reference: DMSO control, higher = more nuclear SOX9	nuclear SOX9 intensity	105 % of DMSO

For quick reference, copied from above (sample 1):
Substitution	normalised enrichment score
R6T	8.04
